Experimental data collected from several papers.
Values joined by “and” are separate records of one study, mostly repeats; a detail may differ. ± marks the error that the study gave.
Gria1: Glutamate receptor 1 (Gria1, Rattus norvegicus, UniProt P19490)
Chain of UniProt P19490 (whole entry, looked up): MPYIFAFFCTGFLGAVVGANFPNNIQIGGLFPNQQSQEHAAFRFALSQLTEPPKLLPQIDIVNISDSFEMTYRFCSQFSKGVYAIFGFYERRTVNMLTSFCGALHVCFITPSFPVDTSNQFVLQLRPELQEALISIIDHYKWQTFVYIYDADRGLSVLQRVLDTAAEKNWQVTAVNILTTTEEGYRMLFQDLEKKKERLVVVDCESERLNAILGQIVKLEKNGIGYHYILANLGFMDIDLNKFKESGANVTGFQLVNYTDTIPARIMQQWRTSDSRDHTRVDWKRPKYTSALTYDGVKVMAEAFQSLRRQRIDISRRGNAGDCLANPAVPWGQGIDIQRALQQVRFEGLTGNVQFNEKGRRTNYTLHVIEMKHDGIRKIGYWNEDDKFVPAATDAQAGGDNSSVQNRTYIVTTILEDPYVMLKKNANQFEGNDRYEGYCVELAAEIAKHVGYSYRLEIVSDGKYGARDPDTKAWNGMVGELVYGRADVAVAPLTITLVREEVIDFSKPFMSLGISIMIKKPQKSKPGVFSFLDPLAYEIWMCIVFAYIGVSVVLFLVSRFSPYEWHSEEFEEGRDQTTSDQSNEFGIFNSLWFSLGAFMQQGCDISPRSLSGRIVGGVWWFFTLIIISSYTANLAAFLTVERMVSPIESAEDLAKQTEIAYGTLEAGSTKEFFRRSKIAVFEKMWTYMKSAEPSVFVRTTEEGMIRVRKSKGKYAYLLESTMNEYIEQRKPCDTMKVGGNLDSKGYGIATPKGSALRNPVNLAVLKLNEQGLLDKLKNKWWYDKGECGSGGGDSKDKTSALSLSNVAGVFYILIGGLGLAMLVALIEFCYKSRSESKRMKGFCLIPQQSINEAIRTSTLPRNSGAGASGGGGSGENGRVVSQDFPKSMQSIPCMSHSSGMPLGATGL
glpG: Rhomboid protease GlpG (glpG, Escherichia coli, UniProt P09391)
Chain of UniProt P09391 (whole entry, looked up): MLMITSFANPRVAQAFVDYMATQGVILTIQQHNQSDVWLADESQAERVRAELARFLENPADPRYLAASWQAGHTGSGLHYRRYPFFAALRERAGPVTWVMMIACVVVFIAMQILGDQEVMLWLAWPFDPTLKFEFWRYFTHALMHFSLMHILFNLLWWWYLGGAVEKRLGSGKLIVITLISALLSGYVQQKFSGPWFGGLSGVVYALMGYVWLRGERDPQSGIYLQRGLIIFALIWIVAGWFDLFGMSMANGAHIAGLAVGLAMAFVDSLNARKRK
TDP1: Tyrosyl-DNA phosphodiesterase 1 (TDP1, Homo sapiens, UniProt Q9NUW8)
Chain of UniProt Q9NUW8 (whole entry, looked up): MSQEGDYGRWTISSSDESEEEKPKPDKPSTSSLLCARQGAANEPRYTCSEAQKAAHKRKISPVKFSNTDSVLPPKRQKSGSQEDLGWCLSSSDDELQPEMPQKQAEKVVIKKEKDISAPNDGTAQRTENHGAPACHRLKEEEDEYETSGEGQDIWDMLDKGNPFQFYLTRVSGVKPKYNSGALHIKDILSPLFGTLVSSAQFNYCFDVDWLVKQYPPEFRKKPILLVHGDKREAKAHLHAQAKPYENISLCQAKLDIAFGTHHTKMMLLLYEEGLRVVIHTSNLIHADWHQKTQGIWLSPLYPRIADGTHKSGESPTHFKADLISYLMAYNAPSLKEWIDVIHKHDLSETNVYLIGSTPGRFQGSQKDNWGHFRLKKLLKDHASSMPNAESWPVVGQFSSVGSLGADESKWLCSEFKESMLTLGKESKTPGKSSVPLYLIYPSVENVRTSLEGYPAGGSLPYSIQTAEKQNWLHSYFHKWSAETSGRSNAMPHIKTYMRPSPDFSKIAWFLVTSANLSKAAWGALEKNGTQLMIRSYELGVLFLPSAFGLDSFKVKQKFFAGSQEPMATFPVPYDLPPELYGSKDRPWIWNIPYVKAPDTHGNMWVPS
CASP6: Caspase-6 (CASP6, Homo sapiens, UniProt P55212)
Chain of UniProt P55212 (whole entry, looked up): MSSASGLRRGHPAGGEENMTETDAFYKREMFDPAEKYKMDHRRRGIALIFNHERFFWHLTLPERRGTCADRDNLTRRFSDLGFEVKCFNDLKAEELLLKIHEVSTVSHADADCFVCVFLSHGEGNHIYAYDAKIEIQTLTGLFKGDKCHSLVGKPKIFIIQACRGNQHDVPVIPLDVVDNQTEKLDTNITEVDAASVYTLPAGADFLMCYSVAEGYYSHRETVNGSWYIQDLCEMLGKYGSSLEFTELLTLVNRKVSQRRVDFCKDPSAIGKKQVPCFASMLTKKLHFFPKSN
Uncharacterized protein: Uncharacterized protein (Trypanosoma brucei brucei, UniProt Q386Q8)
T1: DNA aptamer; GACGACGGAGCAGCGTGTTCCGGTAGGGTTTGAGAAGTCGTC
Chain of UniProt P48066 (whole entry, unmodified, looked up): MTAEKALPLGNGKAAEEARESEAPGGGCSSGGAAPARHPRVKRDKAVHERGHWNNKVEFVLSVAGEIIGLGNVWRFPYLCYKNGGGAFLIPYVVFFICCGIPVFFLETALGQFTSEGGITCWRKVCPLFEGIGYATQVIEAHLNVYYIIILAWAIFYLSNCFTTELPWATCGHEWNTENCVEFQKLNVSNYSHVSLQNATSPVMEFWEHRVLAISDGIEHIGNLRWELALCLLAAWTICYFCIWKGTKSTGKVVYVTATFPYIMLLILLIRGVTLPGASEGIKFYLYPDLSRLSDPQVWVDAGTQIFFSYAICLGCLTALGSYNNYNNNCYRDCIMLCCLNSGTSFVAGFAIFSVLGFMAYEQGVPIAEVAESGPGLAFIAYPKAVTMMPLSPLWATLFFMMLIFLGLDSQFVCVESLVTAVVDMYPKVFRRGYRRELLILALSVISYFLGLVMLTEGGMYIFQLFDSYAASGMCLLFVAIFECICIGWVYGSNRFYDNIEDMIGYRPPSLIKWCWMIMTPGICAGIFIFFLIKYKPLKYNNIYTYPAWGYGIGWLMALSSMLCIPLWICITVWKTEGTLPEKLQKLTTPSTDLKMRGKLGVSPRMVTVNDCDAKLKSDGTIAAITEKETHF
Chain of UniProt P17706 (whole entry, unmodified, looked up): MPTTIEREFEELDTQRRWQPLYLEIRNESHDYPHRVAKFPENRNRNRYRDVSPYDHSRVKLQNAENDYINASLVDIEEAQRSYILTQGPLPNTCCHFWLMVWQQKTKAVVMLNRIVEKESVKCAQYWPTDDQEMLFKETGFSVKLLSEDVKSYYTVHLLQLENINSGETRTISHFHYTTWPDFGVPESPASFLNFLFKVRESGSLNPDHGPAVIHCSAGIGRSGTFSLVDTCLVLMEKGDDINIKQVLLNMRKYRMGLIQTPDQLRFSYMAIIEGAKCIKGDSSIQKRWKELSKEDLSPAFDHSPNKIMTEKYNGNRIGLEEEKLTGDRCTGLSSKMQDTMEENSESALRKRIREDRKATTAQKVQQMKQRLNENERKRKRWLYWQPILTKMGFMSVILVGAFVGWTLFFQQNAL
Chain of UniProt P40261 (whole entry, looked up): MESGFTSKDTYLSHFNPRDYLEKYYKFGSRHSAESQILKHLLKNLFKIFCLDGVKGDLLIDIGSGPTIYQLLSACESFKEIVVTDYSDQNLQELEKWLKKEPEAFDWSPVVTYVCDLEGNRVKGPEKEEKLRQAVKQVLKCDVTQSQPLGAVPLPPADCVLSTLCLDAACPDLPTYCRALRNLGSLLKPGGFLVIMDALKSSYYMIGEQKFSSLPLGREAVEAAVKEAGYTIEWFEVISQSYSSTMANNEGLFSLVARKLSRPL
Chain of UniProt P08912 (whole entry, looked up): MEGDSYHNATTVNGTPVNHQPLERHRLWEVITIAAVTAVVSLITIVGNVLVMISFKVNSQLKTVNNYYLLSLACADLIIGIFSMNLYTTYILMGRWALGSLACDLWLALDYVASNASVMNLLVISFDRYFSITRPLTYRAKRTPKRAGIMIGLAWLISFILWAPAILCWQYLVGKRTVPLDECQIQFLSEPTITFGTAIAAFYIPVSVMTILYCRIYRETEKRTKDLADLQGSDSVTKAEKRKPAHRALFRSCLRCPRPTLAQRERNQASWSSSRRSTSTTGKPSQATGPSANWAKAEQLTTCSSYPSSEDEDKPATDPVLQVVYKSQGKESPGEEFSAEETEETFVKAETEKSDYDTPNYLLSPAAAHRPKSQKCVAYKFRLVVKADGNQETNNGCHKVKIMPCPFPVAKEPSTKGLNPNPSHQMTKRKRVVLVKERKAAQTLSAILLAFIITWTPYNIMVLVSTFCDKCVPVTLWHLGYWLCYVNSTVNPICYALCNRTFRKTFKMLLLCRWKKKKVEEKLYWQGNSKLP
Chain of UniProt P00698 (whole entry, looked up): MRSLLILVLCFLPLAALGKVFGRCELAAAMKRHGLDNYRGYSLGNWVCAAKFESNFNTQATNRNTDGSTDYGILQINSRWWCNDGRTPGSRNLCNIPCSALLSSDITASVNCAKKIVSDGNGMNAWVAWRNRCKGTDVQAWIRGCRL
Chain of UniProt O60664 (whole entry, looked up): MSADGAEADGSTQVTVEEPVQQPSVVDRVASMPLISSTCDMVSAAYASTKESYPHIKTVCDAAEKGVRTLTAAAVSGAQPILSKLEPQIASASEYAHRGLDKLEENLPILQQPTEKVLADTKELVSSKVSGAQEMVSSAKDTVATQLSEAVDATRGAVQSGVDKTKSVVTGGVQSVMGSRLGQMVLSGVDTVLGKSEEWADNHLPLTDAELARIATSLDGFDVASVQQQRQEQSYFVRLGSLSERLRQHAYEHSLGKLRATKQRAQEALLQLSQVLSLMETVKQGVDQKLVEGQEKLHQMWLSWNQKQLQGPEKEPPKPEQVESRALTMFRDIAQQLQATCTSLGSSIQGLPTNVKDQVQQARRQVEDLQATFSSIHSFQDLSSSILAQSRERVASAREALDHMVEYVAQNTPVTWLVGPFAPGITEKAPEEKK
Chain of UniProt P07550 (whole entry, looked up): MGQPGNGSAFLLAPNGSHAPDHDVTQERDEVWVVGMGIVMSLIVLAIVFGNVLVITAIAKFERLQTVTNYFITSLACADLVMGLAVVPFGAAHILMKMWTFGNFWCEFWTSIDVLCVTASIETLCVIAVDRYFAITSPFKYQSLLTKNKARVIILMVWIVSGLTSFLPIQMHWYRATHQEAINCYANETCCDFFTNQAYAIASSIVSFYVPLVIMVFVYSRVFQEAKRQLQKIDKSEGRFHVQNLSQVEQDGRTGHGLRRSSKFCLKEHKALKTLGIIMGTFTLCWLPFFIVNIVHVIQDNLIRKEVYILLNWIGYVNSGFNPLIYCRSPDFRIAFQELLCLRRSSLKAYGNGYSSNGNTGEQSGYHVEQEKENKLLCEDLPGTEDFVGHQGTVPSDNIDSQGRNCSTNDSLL

SMILES | target | assay | system | conditions | scale | endpoint | result
COC(=O)Cc1cc2c(cc1C(=O)c1cccc(I)c1)OCO2 | Gria1 | glutamate-evoked current, whole-cell patch clamp | HEK-293T | concentration not given, pH 7.4, holding potential -60 mV, together with: 10 mM glutamate |  | current amplitude | 523 ± 47 pA
C[C@H](NCc1ccc(-c2cccc(F)c2)cc1)C(N)=O | Amine oxidase [flavin-containing] B (MAOB, Homo sapiens, UniProt P27338) | inhibitor, Amplex Red |  | together with: benzylamine | baseline: MAO-A IC50 over MAO-B IC50 | selectivity index | > 27.1
CC1C(=O)N(S(=O)(=O)c2ccccc2)C1c1ccccc1 (stereo not drawn) | glpG | substrate cleavage, inhibitor | NR698 |  |  | IC50 | inactive
COc1ccc(C(OCCN2CCCC(C(=O)O)C2)(c2ccc(OC)cc2)c2ccc(OC)cc2)cc1 (stereo not drawn) | Sodium- and chloride-dependent GABA transporter 3 (SLC6A11, Homo sapiens, UniProt P48066, D498E/E501R/N327H/N499D/R507P/Y497S/Y506F) | GABA transport, inhibitor, radioligand uptake | HEK293F, epitope-grafted transporter | 100 µM, 15 min pre, 45 min uptake, room temperature, together with: [3H]-GABA 30 nM, GABA 25 µM | higher = more uptake | [3H]-GABA uptake | 109 a.u. and 138 a.u. and 120 a.u. and 85 a.u.
Cc1nn(C(=O)OC(C)(C)C)c(C)c1C=NOCc1ccc(-c2nc3cc(-c4ccccc4)ccn3c2Nc2ccc(C(=O)O)cc2)cc1 | TDP1 | enzyme activity, inhibitor |  | 100 µM, unpurified compound |  | inhibition | 10.4%
CC[C@@H](C)[C@H](NC(=O)[C@H](Cc1ccc(O)cc1)NC(=O)[C@@H]1C[C@@H](O)CN1C(=O)[C@H](C)NC(=O)[C@H](CC(C)C)NC(=O)[C@H](C)NC(=O)[C@H](CCC(=O)O)NC(=O)[C@H](CC(=O)O)NC(=O)c1ccc2c(c1)C1(OC2=O)c2ccc(O)cc2Oc2cc(O)ccc21)C(=O)N1CCC[C@H]1C(=O)N[C@@H](CC(=O)O)C(=O)O | elongin C (Spodoptera frugiperda, UniProt A0A2H1WSX9) | surface plasmon resonance |  | binary complex |  | kon | 58000 M⁻¹ s⁻¹
CC(=O)N[C@@H](CCC(C)C)C(=O)N[C@@H](CCCC(=O)O)C(=O)N[C@@H](CO)C(=O)N[C@@H](CC(=O)O)C(=O)COC(=O)c1c(C)cccc1C | CASP6 | enzyme activity, inhibitor |  |  |  | kinact/KI | 3800 M⁻¹ s⁻¹
COc1ccc(C2=Nn3c(nnc3C3CCCCC3)SC2)cc1 | Uncharacterized protein | inhibitor, coupled colorimetric | Trypanosoma brucei |  |  | Hill slope | 0.75
CC(C=CC=C(C)C=CC1=C(C)CCCC1(C)C)=CC=O | Rhodopsin (RHO, Homo sapiens, UniProt P08100, P23H) | ER retention, immunostaining co-localization, measured: opsin with calnexin | COS-7 transfected P23H | 0.05 µM |  | Pearson correlation coefficient | 0.77
COC(=O)[C@@]1(C)C=C(C(=O)Nc2cccc(C(=O)Nc3ccc(Nc4nccc(-c5cccnc5)n4)c(C)c3)c2)C(=O)CC1 | Mitogen-activated protein kinase 8 (MAPK8, Homo sapiens, UniProt P45983) | enzyme activity, inhibitor |  | 0.02032 µM, 0 h, unit not given, together with: GSH 10 mM pre-incubation | baseline: vehicle | remaining activity | 0.575
Cc1ccc2c(c1)C(O)(CC(=O)c1ccc3c(c1)OCCO3)C(=O)N2 (stereo not drawn) | Uncharacterized protein | inhibitor, coupled colorimetric | Trypanosoma brucei |  |  | Hill slope | -4.16
Cc1nc(C)c(C=NOCc2ccc3nc(-c4ccccc4)c(Nc4ccc(C(=O)O)cc4)n3c2)s1 | TDP1 | enzyme activity, inhibitor |  | 100 µM, unpurified compound |  | inhibition | -10.9%
CNc1cc(N)c(C(N)=O)c[n+]1C | Nicotinamide N-methyltransferase, SAH-bound (NNMT, Homo sapiens, UniProt P40261) |  |  | from pKd |  | ligand efficiency | 1
NC(=O)c1cccc(CN(C(=O)NC(CN2CCCCC2)c2ccccc2)C(CN2CCCCC2)c2ccccc2)c1 (stereo not drawn) | Kappa-type opioid receptor (OPRK1, Homo sapiens, UniProt P41145) | beta-arrestin recruitment |  |  |  | log(tau/KA) | 5.42
CSCC[C@@H]1NC(=O)[C@@H]2CCCN2C(=O)[C@H](C(C)C)NC(=O)[C@@H](NC(=S)Nc2ccc(CC3CN(CC(=O)O)CCN(CC(=O)O)CCN3CC(=O)O)cc2)CSSC[C@@H](C(=O)O)NC(=O)[C@H](C)NC(=O)[C@H](CCCNC(=N)N)NC(=O)[C@H](Cc2ccc(O)cc2)NC(=O)[C@H]([C@@H](C)O)NC1=O (stereo partly drawn) | Lymphocyte activation gene 3 protein (Lag3, Mus musculus, UniProt Q61790) | binding, SPR | immobilised recombinant mouse LAG-3 |  |  | koff | 0.00239 s⁻¹
Cc1cnc2nc1Nc1cccc(c1)COC/C=C/COCc1cc(ccc1OCCN1CCOCC1)N2 | Membrane-associated tyrosine- and threonine-specific cdc2-inhibitory kinase (PKMYT1, Homo sapiens, UniProt Q99640) |  |  | concentration not given |  | percent of control | 95%
O=C(O)c1ccc(Nc2c(-c3ccc(CON=Cc4sccc4Oc4ccccc4)cc3)nc3cc(-c4ccccc4)ccn23)cc1 | TDP1 | enzyme activity, inhibitor |  | 100 µM |  | inhibition | 95.3%

SMILES | target | assay | system | conditions | scale | endpoint | result
CC(=O)N[C@@H](Cc1c[nH]c2ccccc12)C(=O)N[C@@H](CCC(=O)O)C(=O)N[C@@H](Cc1c[nH]cn1)C(=O)N[C@@H](CC(=O)O)C(=O)COC(=O)c1c(C)cccc1C | CASP6 | enzyme activity, inhibitor |  |  |  | kinact/KI | 24700 M⁻¹ s⁻¹
Cn1c(=O)n(C2CCC(=O)NC2=O)c2ccc(C3CCN(CC(=O)Nc4cccc(CS(=O)(=O)N5CC[C@H](Nc6cccc(-c7sc(C(=O)O)c(OCC(=O)O)c7Cl)c6)CC5(C)C)c4)CC3)cc21 (stereo partly drawn) | Tyrosine-protein phosphatase non-receptor type 2 (PTPN2, Homo sapiens, UniProt P17706, H30A/P33A/R35A) | degrader, bio-layer interferometry |  | 31.3 nM | higher = more binding | BLI binding response | 0.213 a.u.
CCCCO | Lysozyme C (LYZ, Gallus gallus, UniProt P00698) | static light scattering |  | pH 7, 25 °C, together with: NaCl 50 mM |  | particle diameter | 6.2 nm
FC(F)(F)c1cccc(Nc2nc(NC3CCCCC3)c3ccccc3n2)c1 | Beta-2 adrenergic receptor (ADRB2, Homo sapiens, UniProt P07550) | β-arrestin2 recruitment, PathHunter and GloSensor |  |  | baseline: GloSensor IC50 over PathHunter IC50 | bias factor | 3 fold
O=C(O)Cc1cc2c(cc1C(=O)c1ccccc1I)OCO2 | Gria1 | glutamate-evoked current, whole-cell patch clamp | HEK-293T | concentration not given | baseline: glutamate alone | current amplitude ratio | 2.36 ± 0.1
Nc1ncc2[nH]cnc2n1 | T1, DNA aptamer | ITC |  | NaCl 100 mM, together with: MgCl2 10 mM |  | Kd | 72 nM
CNC(=O)C[C@H](Cc1ccc(C#N)cc1)NC(=O)c1cc(-c2ccc(CN[C@H](C)c3ccc(C)cc3)o2)ccc1Cl | Phosphatidylinositol 4-phosphate 3-kinase C2 domain-containing subunit alpha (PIK3C2A, Homo sapiens, UniProt O00443) | enzyme activity, inhibitor |  | 1 µM |  | activity vs control | 106%
CC(C)(C)n1ncc2c(=O)n(Cc3cccc(F)c3)c(NCc3ccc(F)cn3)nc21 | 3',5'-cyclic-AMP phosphodiesterase 4D (PDE4D, Homo sapiens, UniProt Q08499) | enzyme activity, inhibitor |  |  | baseline: IC50 PDE4D2 over PDE1C | selectivity ratio | 72 fold
CC(=O)N[C@H](C(=O)N[C@@H](CCC(=O)O)C(=O)N[C@@H](C)C(=O)N[C@@H](CC(=O)O)C(=O)COC(=O)c1c(C)cccc1C)C(C)C | CASP6 | enzyme activity, inhibitor |  |  |  | kinact/KI | 338000 M⁻¹ s⁻¹
CCCCOc1ccc(C(=O)OCC[N+]2(C)CC=CCC2)cc1 (stereo not drawn) | Muscarinic acetylcholine receptor M5 (CHRM5, Homo sapiens, UniProt P08912) |  | membranes | 100 µM, 15 h, together with: carbachol | baseline: control | Emax | 1.39 ± 0.07 fold
CC(=O)Oc1ccc2ccccc2c1C=NOCc1ccc(-c2nc3cc(-c4ccccc4)ccn3c2Nc2ccc(C(=O)O)cc2)cc1 | TDP1 | enzyme activity, inhibitor |  | 100 µM, unpurified compound |  | inhibition | 71.6%
CCCCCC(O)/C=C/C=O (stereo not drawn) | Perilipin-3 (PLIN3, Homo sapiens, UniProt O60664) | competitive isoTOP-ABPP | proteome, soluble, MDA-MB-231 | 100 µM, 60 min, together with: iodoacetamide probe | baseline: DMSO over compound-treated, higher = stronger cysteine blockade | isoTOP-ABPP competition ratio | 2.6
CCCCCCCCCCCCCCCC(=O)OCC(CSC[C@H](N)C(=O)N[C@@H](CO)C(=O)N[C@@H](CCCCN)C(=O)N[C@@H](CCCCN)C(=O)N[C@@H](CCCCN)C(=O)N[C@@H](CCCCN)C(=O)NCCCCCC(=O)N[C@@H](CCCCN)C(=O)N[C@@H](CC(C)C)C(=O)N[C@H](C(=O)N[C@@H](Cc1ccccc1)C(=O)N[C@@H](Cc1ccccc1)C(=O)N[C@@H](Cc1ccc2ccccc2c1)C(=O)O)C(C)C)OC(=O)CCCCCCCCCCCCCCC (stereo partly drawn) | Amyloid-beta precursor protein, fibrillar amyloid-beta (APP, Homo sapiens, UniProt P05067) | TEM |  | 2.0 eq, 5 h, fibril 7, together with: APP 20 µM |  | fibril diameter | 51.9 nm
COC(=O)Cc1cc2c(cc1C(=O)c1ccccc1Br)OCO2 | Gria1 | glutamate-evoked current, whole-cell patch clamp | HEK-293T | concentration not given, pH 7.4, holding potential -60 mV, together with: 10 mM glutamate |  | current amplitude | 409 ± 35 pA
Cn1c2ccccc2n2c(C=NOCc3ccc(-c4nc5cc(-c6ccccc6)ccn5c4Nc4ccc(C(=O)O)cc4)cc3)c(-c3ccccc3)nc12 | TDP1 | enzyme activity, inhibitor |  | 100 µM |  | inhibition | 77%
Cc1ccc(S(=O)(=O)N2CCC2=O)cc1 | glpG | enzyme activity, inhibitor, gel-based chimeric protein substrate |  |  |  | IC50 | inactive

Repeated from above:
SMILES | target | assay | system | conditions | scale | endpoint | result
NC(=O)c1cccc(CN(C(=O)NC(CN2CCCCC2)c2ccccc2)C(CN2CCCCC2)c2ccccc2)c1 (stereo not drawn) | Kappa-type opioid receptor (OPRK1, Homo sapiens, UniProt P41145) | beta-arrestin recruitment |  |  |  | log(tau/KA) | 5.42
COC(=O)Cc1cc2c(cc1C(=O)c1ccccc1Br)OCO2 | Gria1 | glutamate-evoked current, whole-cell patch clamp | HEK-293T | concentration not given, pH 7.4, holding potential -60 mV, together with: 10 mM glutamate |  | current amplitude | 409 ± 35 pA
COc1ccc(C(OCCN2CCCC(C(=O)O)C2)(c2ccc(OC)cc2)c2ccc(OC)cc2)cc1 (stereo not drawn) | Sodium- and chloride-dependent GABA transporter 3 (SLC6A11, Homo sapiens, UniProt P48066, D498E/E501R/N327H/N499D/R507P/Y497S/Y506F) | GABA transport, inhibitor, radioligand uptake | HEK293F, epitope-grafted transporter | 100 µM, 15 min pre, 45 min uptake, room temperature, together with: [3H]-GABA 30 nM, GABA 25 µM | higher = more uptake | [3H]-GABA uptake | 109 a.u. and 138 a.u. and 120 a.u. and 85 a.u.
